Published values pooled from the literature.
A part holds a random share of what one study measured.

Block 1
Target: Histone acetyltransferase KAT6A, both winged helices, GST fusion (KAT6A, Homo sapiens, UniProt Q92794, residues 1-181)
Technique: protein binding microarray
Molecule type: double-stranded DNA, one strand shown
Matrix: in vitro
Concentration: not given
Notes: 8-mer, flanks averaged, mean of 2 arrays, mostly near background
Reference: not given
Direction: higher = stronger binding
Construct (chain): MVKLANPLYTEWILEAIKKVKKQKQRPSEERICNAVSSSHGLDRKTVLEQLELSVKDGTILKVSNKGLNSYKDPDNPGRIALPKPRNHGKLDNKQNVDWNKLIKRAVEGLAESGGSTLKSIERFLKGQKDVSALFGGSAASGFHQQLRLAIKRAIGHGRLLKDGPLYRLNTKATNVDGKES
| Strand | E-score |
| --- | --- |
| AAGATCAT | 0.000955 |
| AAACTCAT | -0.0717 |
| AGCGTGCA | 0.0786 |
| GACCGGTA | 0.13 |
| GTGGCGAA | 0.0264 |
| AATCTGAC | -0.0823 |
| AGGTACGA | -0.149 |
| GCCAACAA | -0.17 |
| GAACGCTA | -0.0611 |
| AATTATCG | 0.0271 |
| AGCGACCG | 0.203 |
| CGGCCTGC | 0.191 |
| AAATGTAA | -0.0504 |
| TCGGCCCA | 0.143 |
| ACCATTCT | -0.216 |
| CGACAAAG | -0.0233 |
| AGGCTTCC | 0.0144 |
| GTGTAAAA | -0.113 |
| CGTACCGC | 0.275 |
| TGCCGGAA | 0.167 |
| CCTCGCCC | -0.0204 |
| TAGGCATA | -0.0716 |

Block 2
Target: Interferon regulatory factor 3, full length, phosphomimetic (IRF3, Homo sapiens, UniProt Q14653, residues 1-427, S386D/S396D/S398D/S402D/T404D/S405D)
Technique: protein-binding microarray
Molecule type: double-stranded DNA, one strand shown
Matrix: in vitro
Concentration: 2540 nM top
Notes: 60-bp whole probe
Together with: salmon DNA 0.4 mg/ml
Reference: random background probes
Direction: higher = stronger binding
Shared flanks, not repeated: GCCTAGCAC … GTCTTGATTCGCTTGACGCTGCTG
Target sequence (chain): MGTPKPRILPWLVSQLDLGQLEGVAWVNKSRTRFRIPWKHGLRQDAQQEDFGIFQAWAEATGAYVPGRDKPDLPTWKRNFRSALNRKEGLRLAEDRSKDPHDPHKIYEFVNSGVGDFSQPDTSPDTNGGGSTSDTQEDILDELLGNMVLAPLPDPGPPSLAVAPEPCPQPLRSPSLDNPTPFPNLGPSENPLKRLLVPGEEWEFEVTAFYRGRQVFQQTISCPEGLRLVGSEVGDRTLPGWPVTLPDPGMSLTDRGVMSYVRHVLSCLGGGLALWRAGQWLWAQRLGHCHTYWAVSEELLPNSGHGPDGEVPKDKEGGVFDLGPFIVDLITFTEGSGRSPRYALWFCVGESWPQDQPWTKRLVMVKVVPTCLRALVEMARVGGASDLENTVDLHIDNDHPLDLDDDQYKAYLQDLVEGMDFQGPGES
| Strand | fitted relative affinity |
| --- | --- |
| GACGCTTTCGGGTATCGAGACGTGCTA | 1.74 z-score |
| GACGGGATCGGACTGGGGACGTGCTAG | -0.263 z-score |
| TCAAGAGTAGCTTTCTGACTGTGCTAG | -0.221 z-score |
| TTAGGTCCCCTTCTCCTTTAGTGCTAG | 3.51 z-score |
| GGCGGTATCGGGACTGGGGACGTGCTA | 1.81 z-score |
| GACGATCTCGGACTGGAGACGTGCTAG | 0.199 z-score |
| TCTTTTATTTTTTTTATTTAGTGCTAG | 2.04 z-score |
| TTTGGTTCCGGTTTCGGTTAGTGCTAG | 7.79 z-score |
| GACGGTCTCCGTTTCGGGACGTGCTAG | 4.14 z-score |
| TTAGATATCAGAATGGATTAGTGCTAG | 0.803 z-score |
| CTTGCTCTTGTTTTCACAGGGTGCTAG | 0.783 z-score |
| TTTCCTATGTCATTTACATTGTGCTAG | 4.95 z-score |
| TTATATCTCAGACTGGATTAGTGCTAG | 0.473 z-score |
| TTAGAACTCAGACTGGATTAGTGCTAG | -0.189 z-score |
| GAAGGACTGGGTATCGGGACGTGCTAG | -0.283 z-score |
| TCAGGTTTTCTAATGTTACTGTGCTAG | 1 z-score |
| TTCGGTTCCCTTTTCCTTTAGTGCTAG | 7.19 z-score |
| GACGATATCAGACTTGAGACGTGCTAG | 0.731 z-score |
| TATATATCCATTATAGATGAGTGCTAG | 1.63 z-score |
| TAAGGTTTCCTTCTCCTTTAGTGCTAG | 9.99 z-score |
| GACGGTATCTACTTTCGGGACGTGCTA | 1.4 z-score |
| GACGATCTCAGACGGGAGACGTGCTAG | 0.283 z-score |
| CCATTCTTGGGACTCACCTGGTGCTAG | 1.98 z-score |
| GAGACTTTGCTCTGTGCATAGGTGCTA | -0.565 z-score |
| GACGGTTTCGACTATCCGGACGTGCTA | 3.41 z-score |

Block 3
Target: Sox-I, HMG box (Salpingoeca helianthica)
Technique: Spec-seq
Molecule type: double-stranded DNA, one strand shown
Matrix: in vitro
Concentration: not given
Notes: whole probe, mean of replicates
Reference: not given
Direction: lower = stronger binding
Shared flanks, not repeated: GAGTCGTCTCGTCAGCAC … CCGTAGAGCACTCAGGTC
Construct (chain): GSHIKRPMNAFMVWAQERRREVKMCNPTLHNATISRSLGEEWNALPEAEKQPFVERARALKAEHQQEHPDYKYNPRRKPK
| Strand | relative binding energy [ln ratio] |
| --- | --- |
| GGAAGTT | 1.35 |
| TATGGTT | 0.0682 |
| TCCGGTT | 0.729 |
| TAATGTT | -0.00576 |
| AGGGGTT | 0.616 |
| CTGAGTT | 1.04 |
| CTCTGTT | -0.76 |
| CCCCGTT | 0.399 |
| GTTCGTT | 0.958 |
| CATTGTG | -1.65 |
| GGTTGTT | -0.099 |
| TTCCGTT | 0.801 |
| CAGCGTT | 1.12 |
| CATGCGT | 1.21 |
| CATCATG | 0.527 |
| CATTGGA | 1.04 |

Block 4
Target: RNA binding protein fox-1 homolog 2, RRM domain, GST-SBP tag (RBFOX2, Homo sapiens, UniProt O43251-10, residues 100-194)
Technique: RNA Bind-n-Seq
Molecule type: RNA
Matrix: in vitro
Concentration: 365 nM
Notes: natural RNA segment, single round, ends assumed
Reference: no-protein control
Direction: higher = stronger binding
Shared flanks, not repeated: GGGAGUUCUACAGUCCGACGAUC … UGGAAUUCUCGGGUGCCAA
Target sequence (chain): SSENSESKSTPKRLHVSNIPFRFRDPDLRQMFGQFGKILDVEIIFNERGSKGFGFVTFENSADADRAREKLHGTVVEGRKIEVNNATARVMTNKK
| Strand | RBNS enrichment (R) |
| --- | --- |
| AGGACAUGGAUCCAAAAUGAUGAUGAAGCAUCUCCCAUGGGGAGGUGAUGGUGGGGAGAUGAUGGGCUAAACAGGCAACUUUUCAAAAACACAGCUAUCAUAGAAAAGAA | 1.12 |
| UCGUCUCUUACAUACUCUCAUCUUCUCCCCCGCUCCCUUCCACUCCAAGGAGCGAGGAGGGCAAGCGGCCUCCCAGCUCCCUGGUACCUCGAGGCACCAUUCCAGCCAGG | 0.607 |
| AGACUUGGCUGCCCUCUGAUGUGGGUGCUUCUGCCCCUUCCCUGUUCUAACUGUCCGACAGGCUCCCAGUCUCUGUGUGUCCAGGCCAGAGGACCAGCACUCAGGAGAGU | 0.56 |
| CCGAGGGGACCGGGUGUGUUUGGCUCUUUAUGCCCCUCCCGCUGUGGUCCUGGAACUCUUCACCAGGGAGGGAGCCCUGCGGGGGCCGCAGCUUUGUGGAGGGAGCCGCC | 0.567 |
| UGGAUUGUGACUUGUAGACUCAAGCUAACCUUACUGCCUCUUUUUCACACUUGUUGAAAAGUCUGUGAAGAACAUAGUUAAAGAUCUCCAACUUUGGAAAAUAUACAUGA | 0.531 |
| UCACUUGAUUGAGCAUAUUGAUUUGAAAGAGCUAAGAUUUUCCUGCUUAAUGUCAGCCAUUGGCUCUCCUGAUAAUUGGGACUUUUUGUUUGUUUGUUUUUUGUUGUUUU | 6.17 |
| CCCAGUUUCUAGAUGAAUGCAACAUGAUGAUGGUGAUGAUGACGAUGAGUUUAAUCAUUGUUCAUUUAUUGCCUUUAGGGCUGAGGGAAAGGGAAGGUUUGUUUUUUUUU | 1.3 |
| GCCCAGAAACCAGAAGCCCCUAUAGAGGCCCCAGUCCCAACUCCAGUAAAGACACUCUUGUCCUUGGGCAUGGCUGUGCUCUCCUUGCUGGGUGGGAAGGGCCCUCAGCU | 0.277 |
| UGUUUGCUAAACCUUGAAGAAACAUGUGCCUCAGCCUAGAUGUUUUGUCUUCUCUUUUCUGCACUUAAUACCUGACAGUAUGACCGAUCUCUGCGCCUUUCUGGGGGCGG | 0.298 |
| CUUUCUAGUGCCCAUCUUGGCUCUCCAGCUGCAAGUUGCACAGCCAUAACCUAAGACUUUAAAAUAAGGCCACACCCAGAUUUGGGAAGGUAGAGGGGGAAAAAAAGUAG | 0.276 |
| AAAUGAAAAACCAGAAGGCCAUUUGGUGUCCCCCCUCCCAGGUGUCCCCUUGUAGCAUAUGCAUUAUGUCAUCUGAAUUGAGGCCUUUCUGUGAACAGCAUCAUAACUUC | 0.902 |
| ACAAGACACCAAGUCCCUAGGCUGCACACACAUGUCAGGGGCUGCCCUGACAUGGCCUGGAGACAUUUUCCCCAUGGUGUUGGGGAUUAACAUUAGGCUCCUUGCUACUU | 1.54 |

Excerpt of the above (block 4):
| Strand | RBNS enrichment (R) |
| --- | --- |
| UCACUUGAUUGAGCAUAUUGAUUUGAAAGAGCUAAGAUUUUCCUGCUUAAUGUCAGCCAUUGGCUCUCCUGAUAAUUGGGACUUUUUGUUUGUUUGUUUUUUGUUGUUUU | 6.17 |
| ACAAGACACCAAGUCCCUAGGCUGCACACACAUGUCAGGGGCUGCCCUGACAUGGCCUGGAGACAUUUUCCCCAUGGUGUUGGGGAUUAACAUUAGGCUCCUUGCUACUU | 1.54 |
| CCCAGUUUCUAGAUGAAUGCAACAUGAUGAUGGUGAUGAUGACGAUGAGUUUAAUCAUUGUUCAUUUAUUGCCUUUAGGGCUGAGGGAAAGGGAAGGUUUGUUUUUUUUU | 1.3 |
| AGACUUGGCUGCCCUCUGAUGUGGGUGCUUCUGCCCCUUCCCUGUUCUAACUGUCCGACAGGCUCCCAGUCUCUGUGUGUCCAGGCCAGAGGACCAGCACUCAGGAGAGU | 0.56 |
| AAAUGAAAAACCAGAAGGCCAUUUGGUGUCCCCCCUCCCAGGUGUCCCCUUGUAGCAUAUGCAUUAUGUCAUCUGAAUUGAGGCCUUUCUGUGAACAGCAUCAUAACUUC | 0.902 |
| CUUUCUAGUGCCCAUCUUGGCUCUCCAGCUGCAAGUUGCACAGCCAUAACCUAAGACUUUAAAAUAAGGCCACACCCAGAUUUGGGAAGGUAGAGGGGGAAAAAAAGUAG | 0.276 |
| GCCCAGAAACCAGAAGCCCCUAUAGAGGCCCCAGUCCCAACUCCAGUAAAGACACUCUUGUCCUUGGGCAUGGCUGUGCUCUCCUUGCUGGGUGGGAAGGGCCCUCAGCU | 0.277 |
| UGGAUUGUGACUUGUAGACUCAAGCUAACCUUACUGCCUCUUUUUCACACUUGUUGAAAAGUCUGUGAAGAACAUAGUUAAAGAUCUCCAACUUUGGAAAAUAUACAUGA | 0.531 |
| CCGAGGGGACCGGGUGUGUUUGGCUCUUUAUGCCCCUCCCGCUGUGGUCCUGGAACUCUUCACCAGGGAGGGAGCCCUGCGGGGGCCGCAGCUUUGUGGAGGGAGCCGCC | 0.567 |
| UCGUCUCUUACAUACUCUCAUCUUCUCCCCCGCUCCCUUCCACUCCAAGGAGCGAGGAGGGCAAGCGGCCUCCCAGCUCCCUGGUACCUCGAGGCACCAUUCCAGCCAGG | 0.607 |
